Measured values pooled from the literature.
Compare with care: the assays were run in different laboratories. Several values in a cell are separate wells, animals, samples, runs or records. Numbers after ± are the reported error.

`C[C@@H](N)c1cc(Cl)ccc1Cn1c(=S)[nH]c(=O)c2[nH]ccc21` gave a CL/F of 10.8 L/h (human, severe renal impairment, plasma; oral, 2.5 mg, geometric mean, single dose).
`COC(=O)c1ccc2c(c1)NC(=O)/C2=C(\Nc1ccc(N(C)C(=O)CN2CCN(C)CC2)cc1)c1ccccc1` gave a CL/F of 936 L/h (healthy human; oral, 150 mg single, alone).
With `CCN1CCN(Cc2ccc(Nc3ncc(F)c(-c4cc(F)c5nc6n(c5c4)[C@H](C)CCC6)n3)nc2)CC1` the CL/F was 53.7 L/h (human, Phase Ib patients, plasma; 400 mg, multiple doses, mean, together with: fulvestrant).
`CC(C)c1nc(N(C)S(C)(=O)=O)nc(-c2ccc(F)cc2)c1/C=C/[C@@H](O)C[C@@H](O)CC(=O)O` gave a CL/F of 272 L/h (human, plasma; 10 mg, alone, geometric mean).
With `Cc1ccc(C)c(OCCCC(C)(C)C(=O)O)c1` the CL/F was 9.8 L/h (human; oral, dose not given, after lopinavir/ritonavir, geometric mean, together with: lopinavir/ritonavir).
`Cn1cncc1[C@@](N)(c1ccc(Cl)cc1)c1ccc2c(c1)c(-c1cccc(Cl)c1)cc(=O)n2C` gave a CL/F of 286 mL/min/m2 (human patients; oral, 300 mg/m2, first dose, cycle 1, initial cohort, median).
With `C[C@@H]1CCO[C@H]2Cn3cc(C(=O)NCc4ccc(F)cc4F)c(=O)c(O)c3C(=O)N12` the CL/F was 0.7 L/h (human, haemodialysis patients; oral, steady state, fixed-dose combination).
With `C[C@@H](Oc1cc(-c2cnn(C3CCNCC3)c2)cnc1N)c1c(Cl)ccc(F)c1Cl` the CL/F was 121 L/h (human patients, plasma; oral, cycle 2 day 1, mean, together with: avelumab).
`Cn1nnc2c(C(N)=O)ncn2c1=O` gave a CL/F of 4.3 L/h/m2 (human patients, plasma; oral, 55 mg/m2, day 5, dose level DL6, median, together with: talazoparib 600 µg/m2).
`Cc1ncnc2c1ccn2[C@@H]1C[C@H](Oc2cc(C(F)F)c(F)c3c2CNCC3)[C@@H](O)[C@H]1O` has a CL/F of 6.55 L/h and 13.5 L/h (human; oral, 2 mg twice daily).
The CL/F of `Cc1cc(/C=C/C#N)cc(C)c1Nc1ccnc(Nc2ccc(C#N)cc2)n1` is reported as 14.9 L/h (human, normal renal function; oral, steady state, fixed-dose combination).
The CL/F of `CNC(=O)n1ccc2cc(Oc3ccnc(NC(=O)c4ccc(C5CCN(CCO)CC5)cc4)c3)c(OCCOC)cc21` is reported as 273 L/h (healthy human; oral, 35 mg, fasted, geometric mean).
With `C[C@@H](Oc1ccc(S(C)(=O)=O)cc1C(=O)N1C[C@@H]2C[C@]2(c2cc(C(F)(F)F)on2)C1)C(F)(F)F` the CL/F was 6.06 L/h (elderly humans, plasma; 50 mg once daily, single dose, geometric mean).
`CCCOc1ccc(NC(=O)CN2CCN(C)CC2)cc1-c1nc(CC)c(CC)c(=O)[nH]1` has a CL/F of 17.5 ± 2.78 L/h (human, fasting, plasma; oral, 10 mg, together with: alcohol 0.5 g/kg).
The CL/F of `C[C@H](Oc1ccc(Br)cc1-c1ccon1)C(=O)O` is reported as 4.39 L/h (human, plasma; oral, 400 mg twice daily, day 10, multiple ascending dose).
`C#C[C@]1(CO)O[C@@H](n2cnc3c(N)nc(F)nc32)C[C@@H]1O` has a CL/F of 27.3 L/h (human, plasma; oral, 200 mg, single dose, geometric mean).
`Cl.[2H]C([2H])([2H])CC(=O)c1cnc(NC(=O)C2CC2)cc1Nc1cccc(-c2ncn(C([2H])([2H])[2H])n2)c1OC` gave a CL/F of 15.2 L/h (geometric mean; human; 40 mg twice daily, day 1, fed, liquid, multiple dose).
`COc1cc2ncnc(Nc3ccc(F)c(Cl)c3)c2cc1NC(=O)/C=C/CN1CCCCC1` has a CL/F of 70.2 L/h (human, plasma; oral, 30 mg single dose).
With `CCN1CCN(Cc2ccc(Nc3ncc(F)c(-c4cc(F)c5nc(C)n(C(C)C)c5c4)n3)nc2)CC1` the CL/F was 48.1 L/h (fasted healthy human subjects; oral, 150 mg, 3 × 50 mg tablet).
`CCn1cc(C(=O)N2CCOCC2)c(=O)c2cc(NC3Cc4ccccc4C3)cnc21` gave a CL/F of 17.7 L/h (human, plasma; oral, 900 mg BID, day 7, fed, tablet, female).
`C[C@H](O)c1cc(C(=O)N[C@@H](C)Cn2ccc(-c3ccc(C#N)c(Cl)c3)n2)n[nH]1` has a CL/F of 14.2 L/h (human, fasted, plasma; oral tablet, 300 mg, geometric mean).
`Cn1cc(-c2cn3nccc3c(-c3cnn([C@]4(CC#N)C[C@@H](C#N)C4)c3)n2)cn1` gave a CL/F of 80.6 L/h (healthy human fed; dose not given, day 10, once daily dosing).
With `Cn1c(=O)oc2ccc(-c3ccc(C[C@@H](C#N)NC(=O)[C@@H]4CNCCCO4)cc3)cc21` the CL/F was 7.43 L/h (human, normal renal function, plasma; oral, 25 mg single dose, mean).
With `COC(=O)N[C@H](C(=O)N1CCC[C@H]1c1nc(-c2ccc(-c3ccc(-c4c[nH]c([C@@H]5CCCN5C(=O)[C@@H](NC(=O)OC)C(C)C)n4)cc3)cc2)c[nH]1)C(C)C` the CL/F was 4.87 L/h (population PK base model without covariates; human).
The CL/F of `CC(C)c1nc(N(C)S(C)(=O)=O)nc(-c2ccc(F)cc2)c1/C=C/[C@@H](O)C[C@@H](O)CC(=O)O` is reported as 360 L/h (healthy human subjects, plasma; oral, 10 mg, arithmetic mean, together with: fruquintinib 5 mg).
The CL/F of `CN[C@H]1CC[C@@H](c2ccc(Cl)c(Cl)c2)c2ccccc21` is reported as 80.1 L/h (human; oral).
The CL/F of `C=CC(=O)NC1CCN(c2ncc3ncnc(Nc4ccc(Oc5ccc6c(c5)ncn6C)c(C)c4)c3n2)CC1` is reported as 9.36 L/h (human, plasma; oral, 30 mg single dose, fasted, geometric mean).
For `NC(=S)NN=Cc1ncccc1N`, the CL/F was 97.5 L/h (human, plasma; oral, 100 mg).
With `COc1cc(N2CCC3(CCN(C)CC3)CC2)ccc1Nc1ncc(Cl)c(Nc2ccccc2P(C)(C)=O)n1` the CL/F was 18.7 L/h (population PK base model; human).
With `CCOc1cc(CC(=O)N[C@@H](CC(C)C)c2ccccc2N2CCCCC2)ccc1C(=O)O` the CL/F was 51.8 L/h (human; oral, substrate with omaveloxolone, together with: omaveloxolone once daily).
`CC1(COc2ccc3c(c2)ncn3-c2ccc3cccc(N4CCC(N)CC4)c3n2)COC1` gave a CL/F of 18.5 L/h/m² (human patients, recurrent/progressive HGG or DIPG, serum; oral, 170 mg/m^2, day 28, median).
The CL/F of `CCCn1cc(C)c2c(=O)[nH]c(-c3cc(S(=O)(=O)N4CCN(CC)CC4)ccc3OCC)nc21` is reported as 665 ± 421 L/h (human; oral, 100 mg).
With `O=C(O)CCC(=O)O.[2H]C([2H])([2H])Oc1cc(C)c2[nH]ccc2c1CN1CC[C@@H](C2CC2)C[C@H]1c1ccc(C(=O)O)cc1` the CL/F was 1.81 L/h (LC-MS/MS, mean; human, plasma; 100 mg, single dose, fasting).
For `[H]/N=C(/N)c1ccc(NCc2nc3cc(C(=O)N(CCC(=O)O)c4ccccn4)ccc3n2C)cc1`, the CL/F was 171 L/h (healthy human subjects, plasma; oral, 150 mg, dabigatran etexilate alone, arithmetic mean).
For `NC(CO)(CO)CCc1ccc(Sc2cccc(OCc3ccccc3)c2)cc1Cl`, the CL/F was 20.8 L/h (human, whole blood; 3 mg, mean, together with: itraconazole 200 mg once daily).
With `C[C@H]1Oc2cc(cnc2N)-c2c(nn(C)c2C#N)CN(C)C(=O)c2ccc(F)cc21` the CL/F was 16 L/h (human patients, plasma; oral, cycle 2 day 1, median, together with: avelumab).
The CL/F of `CN1C(=O)[C@@H](NC(=O)c2nnc(Cc3ccccc3)[nH]2)COc2cccnc21` is reported as 5.88 L/h (healthy human, fasted, plasma; oral, 100 mg single dose, geometric mean).
With `COC(=O)N[C@@H](C)CNc1nccc(-c2cn(C(C)C)nc2-c2cc(Cl)cc(NS(C)(=O)=O)c2F)n1` the CL/F was 16 L/h (human, plasma; 50 mg, single dose, arithmetic mean, together with: diltiazem 240 mg once daily).
`CC(C)c1nc(N(C)S(C)(=O)=O)nc(-c2ccc(F)cc2)c1/C=C/[C@@H](O)C[C@@H](O)CC(=O)O` has a CL/F of 412 L/h (human, plasma; 20 mg, day 2, geometric mean, alone).
`CC1(C)CC[C@]2(NC(=O)C(C)(F)F)CC[C@]3(C)[C@H](C(=O)C=C4[C@@]5(C)C=C(C#N)C(=O)C(C)(C)[C@@H]5CC[C@]43C)[C@@H]2C1` has a CL/F of 20.6 L/h (human; geometric mean, together with: itraconazole once daily).
The CL/F of `C#Cc1cccc(Nc2ncnc3cc(OCCOC)c(OCCOC)cc23)c1` is reported as 8.59 ± 4.52 L/h (human; oral, 50 mg, day 1).
